{"data": "Assay results pooled from the literature", "CHRM1": "Muscarinic acetylcholine receptor M1 (CHRM1, Homo sapiens, UniProt P11229)", "note": "Protocols differ between the studies behind these lines. “And” joins repeats or separate records; there may be more than shown. Numbers after ± are the reported error. Where no end group is shown, it is not given here.", "sequence of UniProt P11229 (whole entry, looked up)": "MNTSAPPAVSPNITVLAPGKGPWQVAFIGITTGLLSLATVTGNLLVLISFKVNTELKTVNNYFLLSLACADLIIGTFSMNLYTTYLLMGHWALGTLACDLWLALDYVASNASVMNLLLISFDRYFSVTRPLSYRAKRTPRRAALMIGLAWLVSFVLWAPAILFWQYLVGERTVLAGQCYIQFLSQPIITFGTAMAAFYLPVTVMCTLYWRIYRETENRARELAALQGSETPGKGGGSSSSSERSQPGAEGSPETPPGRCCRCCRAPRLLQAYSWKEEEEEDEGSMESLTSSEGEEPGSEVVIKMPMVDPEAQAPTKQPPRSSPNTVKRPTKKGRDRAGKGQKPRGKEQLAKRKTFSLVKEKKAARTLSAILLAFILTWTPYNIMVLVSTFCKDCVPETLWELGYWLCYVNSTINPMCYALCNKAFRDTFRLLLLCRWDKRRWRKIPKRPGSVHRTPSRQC", "sequence of UniProt P00760 (whole entry, looked up)": "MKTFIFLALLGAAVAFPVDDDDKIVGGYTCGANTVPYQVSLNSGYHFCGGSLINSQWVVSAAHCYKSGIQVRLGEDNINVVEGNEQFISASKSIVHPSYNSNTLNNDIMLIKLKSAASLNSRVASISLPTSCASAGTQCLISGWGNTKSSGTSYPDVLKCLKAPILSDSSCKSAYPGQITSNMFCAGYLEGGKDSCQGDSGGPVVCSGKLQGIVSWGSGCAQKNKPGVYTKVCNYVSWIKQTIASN"}
{"Substance": "NNC(=O)Cn1cc(COc2ccccc2-c2nc(-c3ccccc3)no2)nn1", "target or system": "A549", "assay": "qPCR, item: TP53", "conditions": "concentration not given, 24 h", "scale": "baseline: untreated", "quantity": "mRNA level", "value": "5.5 ± 0.003 fold"}
{"Substance": "CO/N=C1\\C[C@]2(C[C@@H]3C[C@@H](C/C=C(\\C)C[C@@H](C)/C=C/C=C4\\CO[C@@H]5[C@H](O)C(C)=C[C@@H](C(=O)O3)[C@]45O)O2)O[C@H](/C(C)=C/C(C)C)[C@H]1C", "target or system": "Haemonchus contortus", "test system": "multidrug resistant, sheep", "conditions": "oral, 0.2 mg/kg, day 2 post-treatment, added: closantel 10 mg/kg", "quantity": "faecal egg count reduction", "value": "96%"}
{"Substance": "Cc1ccc(NC(=O)c2ccc(CN3CCN(C)CC3)cc2)cc1Nc1nccc(-c2cncc(-c3oncc3C)c2)n1", "test system": "mild-to-moderate Parkinson's disease patients", "conditions": "oral, 100 mg once daily, day 7, practically defined OFF state", "scale": "direction not given", "quantity": "MDS-UPDRS part III score", "value": "48.4 ± 20"}
{"Substance": "Nc1cccc(-c2cc3ccccc3[nH]2)c1", "target or system": "RAW264.7", "assay": "sulforhodamine B", "conditions": "50 µM, 20 h", "scale": "baseline: vehicle", "quantity": "viability", "value": "112 ± 6%"}
{"Substance": "CC(C)[C@H](NC(=O)[C@@H]1CCCN1C(=O)[C@H](CCCNC(=N)N)NC(=O)[C@H](CS)NC(=O)[C@H](Cc1c[nH]c2ccccc12)NC(=O)[C@H](CCCNC(=N)N)NC(=O)[C@@H](Cc1ccccc1)NC(=O)[C@H](Cc1c[nH]cn1)NC(=O)[C@H](CCC(=O)O)NC(=O)[C@H](CS)NC(=O)[C@H](CS)NC(=O)[C@H](CCCCN)NC(=O)[C@@H]1CC(=O)N[C@@H](CCCNC(=N)N)C(=O)N[C@@H](C)C(=O)N[C@@H](CC(=O)O)C(=O)N[C@H](Cc2ccc(O)cc2)C(=O)N1)C(N)=O [technetium-99m labelled]", "test system": "C57 mice, muscle", "conditions": "intravenous, 0.037 MBq, 24 h", "quantity": "tissue uptake", "value": "0.08 ± 0.04 %ID/g"}
{"Substance": "Nc1nc2c(ncn2[C@@H]2O[C@@H]3COP(=O)(O)O[C@H]3[C@H]2O)c(=O)[nH]1", "target or system": "cone cyclic nucleotide-gated channel", "assay": "ion current, agonist, inside-out patch clamp", "conditions": "pH 7.5, room temperature, endogenous modulator present, -40 mV, added: Ca2+ 20 µM, Mg2+ 100 µM", "quantity": "EC50", "value": "101 µM and 88.4 µM"}
{"Substance": "O=c1cc(-c2ccccc2OCc2ccc([N+](=O)[O-])cc2)ncn1C1CCCCC1O (centres unmarked)", "target or system": "CHRM1", "assay": "positive allosteric modulator, IP1 accumulation", "test system": "CHO-M1 cells", "conditions": "1 µM, 60 min, 37 °C, added: ACh", "scale": "baseline: ACh alone, higher = stronger potentiation", "quantity": "ΔpEC50 of ACh", "value": "0.84 ± 0.12 log units"}
{"Substance": "NC(=O)Cn1cc(COc2ccccc2-c2nc(-c3ccccc3)no2)nn1", "target or system": "Caco-2", "assay": "qPCR, item: mTOR", "conditions": "IC50, 24 h", "scale": "baseline: untreated cancer cells", "quantity": "mRNA level", "value": "0.35 ± 0.005 fold"}
{"Substance": "C#CCn1c(-c2ccccc2)cc2ccccc21", "target or system": "RAW264.7", "assay": "sulforhodamine B", "conditions": "50 µM, 20 h", "scale": "baseline: vehicle", "quantity": "viability", "value": "35.8 ± 3.2%"}
{"Substance": "Cc1cc(C(C#N)c2ccc(Cl)cc2)c(Cl)cc1NC(=O)c1cc(I)cc(I)c1O (centres unmarked)", "target or system": "Haemonchus contortus", "test system": "multidrug-resistant", "conditions": "oral, 10 mg/kg, day 2 post-treatment, added: moxidectin 0.2 mg/kg", "quantity": "faecal egg count reduction", "value": "88%"}
{"Substance": "O=Cc1c(-c2ccccc2)[nH]c2ccccc12", "target or system": "RAW264.7", "assay": "NO release, inhibitor, Griess", "conditions": "50 µM, 20 h, LPS-stimulated", "quantity": "inhibition", "value": "30.6%"}
{"Substance": "CC[C@H](C)[C@H](NC(=O)[C@H](CCC(=O)O)NC(=O)[C@H](CO)NC(=O)[C@@H](NC(=O)[C@@H](N)CO)C(C)C)C(=O)N[C@@H](CCC(N)=O)C(=O)N[C@@H](CC(C)C)C(=O)N[C@@H](CCSC)C(=O)N[C@@H](Cc1cnc[nH]1)C(=O)N[C@@H](CC(N)=O)C(=O)N[C@@H](CC(C)C)C(=O)NCC(=O)N[C@@H](CCCCN)C(=O)N[C@@H](Cc1cnc[nH]1)C(=O)N[C@@H](CC(C)C)C(=O)N[C@@H](CC(N)=O)C(=O)N[C@@H](CO)C(=O)N[C@@H](CCSC)C(=O)N[C@@H](CCC(=O)O)C(=O)N[C@@H](CCCN=C(N)N)C(=O)N[C@H](C(=O)N[C@@H](CCC(=O)O)C(=O)N[C@@H](Cc1c[nH]c2ccccc12)C(=O)N[C@@H](CC(C)C)C(=O)N[C@@H](CCCN=C(N)N)C(=O)N[C@@H](CCCCN)C(=O)N[C@@H](CCCCN)C(=O)N[C@@H](CC(C)C)C(=O)N[C@@H](CCC(N)=O)C(=O)N[C@@H](CC(=O)O)C(=O)N[C@H](C(=O)N[C@@H](Cc1cnc[nH]1)C(=O)N[C@@H](CC(N)=O)C(=O)N[C@@H](Cc1ccccc1)C(=O)O)C(C)C)C(C)C", "target or system": "Serine protease 1 (PRSS1, Bos taurus, UniProt P00760)", "assay": "substrate, HPLC-UV", "test system": "Tris buffer", "conditions": "15 min, pH 6.5, 37 °C, added: bovine trypsin 0.5 mg, no SBTI", "quantity": "remaining intact compound", "value": "0%"}
{"Substance": "CC(C)C[C@H](NC(=O)[C@H](CO)NC(=O)[C@H](CCCNC(=N)N)NC(=O)[C@H](CC(=O)O)NC(=O)[C@H](CCC(=O)O)NC(=O)[C@H](C)NC(=O)[C@@H]1CCCN1C(=O)[C@H](C)NC(=O)[C@H](CCC(=O)O)NC(=O)[C@@H]1CCCN1C(=O)[C@@H]1CCCN1)C(N)=O", "assay": "HPLC-EC", "test system": "F344 rat, normal, striatum", "conditions": "intranasal, 300 µg, 5 days/week for 3 weeks", "quantity": "DOPAC level", "value": "2420 ± 259 ng/g"}
{"Substance": "COc1cccc2c1C(=O)c1c(O)c3c(c(O)c1C2=O)C[C@@](O)(C(=O)CO)C[C@@H]3O[C@H]1C[C@H](N)[C@H](O)[C@H](C)O1", "target or system": "Caco-2", "assay": "qPCR, item: PI3K", "conditions": "IC50, 24 h", "scale": "baseline: untreated", "quantity": "mRNA level", "value": "0.19 ± 0.003 fold"}
{"Substance": "Cc1ccc2cc(-c3ccccc3)[nH]c2c1", "target or system": "RAW264.7", "assay": "NO release, inhibitor, Griess", "conditions": "50 µM, 20 h, LPS-stimulated", "quantity": "inhibition", "value": "45.1%"}
{"Substance": "Cc1ccc(COc2ccccc2-c2cc(=O)n(C3CCCCC3O)cn2)cc1 (centres unmarked)", "target or system": "CHRM1", "assay": "positive allosteric modulator, IP1 accumulation", "test system": "CHO-M1 cells", "conditions": "10 µM, 60 min, 37 °C, added: ACh", "scale": "baseline: ACh alone, higher = stronger potentiation", "quantity": "ΔpEC50 of ACh", "value": "1.32 ± 0.2 log units"}
{"Substance": "O=C(Cn1cc(COc2ccccc2-c2nc(Cc3ccccc3)no2)nn1)NNC(=S)Nc1ccccc1", "target or system": "Caco-2", "assay": "qPCR, item: PI3K", "conditions": "IC50, 24 h", "scale": "baseline: untreated cancer cells", "quantity": "mRNA level", "value": "0.53 ± 0.0004 fold"}
{"Substance": "c1ccc(Cc2c(-c3ccccc3)n(Cc3ccccc3)c3ccccc23)cc1", "target or system": "RAW264.7", "assay": "NO release, inhibitor, Griess", "conditions": "50 µM, 20 h, LPS-stimulated", "quantity": "inhibition", "value": "0%"}
{"Substance": "Polymyxin B", "test system": "human whole blood", "conditions": "50 ng/mL, 4 h, 37 °C, added: E. coli LPS 0.5 ng/mL", "scale": "baseline: LPS without compound", "quantity": "IL-6 release", "value": "40 ± 18.6%"}
{"Substance": "TDVAHVFLRF-NH2 (C-amide)", "target or system": "Drosophila melanogaster", "assay": "heart rate", "test system": "adult heart", "conditions": "40 nL injected, 1 µM, 10 min", "scale": "baseline: DMS", "quantity": "inhibition", "value": "114%"}
{"note": "Some of these lines once more:"}
{"Substance": "CC(C)C[C@H](NC(=O)[C@H](CO)NC(=O)[C@H](CCCNC(=N)N)NC(=O)[C@H](CC(=O)O)NC(=O)[C@H](CCC(=O)O)NC(=O)[C@H](C)NC(=O)[C@@H]1CCCN1C(=O)[C@H](C)NC(=O)[C@H](CCC(=O)O)NC(=O)[C@@H]1CCCN1C(=O)[C@@H]1CCCN1)C(N)=O", "assay": "HPLC-EC", "test system": "F344 rat, normal, striatum", "conditions": "intranasal, 300 µg, 5 days/week for 3 weeks", "quantity": "DOPAC level", "value": "2420 ± 259 ng/g"}
